Measured values from different studies.
Numbers after ± are the reported error.

Under IL-6 secretion, `O=C([O][Ti+2][O]C(=O)c1ccc([P+]([Au-][Cl])(c2ccccc2)c2ccccc2)cc1)c1ccc([P+]([Au-][Cl])(c2ccccc2)c2ccccc2)cc1.c1cc[cH-]c1.c1cc[cH-]c1` is recorded as “decreased” (CAKI-1 cells; ELISA; 10 µM, 6 h).
`O=Cc1c(O)ccc2ccccc12` — result for “log2 fold change”: 3.25 (HUVEC; RNA sequencing, item: CHAC1; 75 µM, 24 h; baseline: DMSO).
`O=C(NCC1(c2nc(-c3ccccc3)cs2)CCOCC1)c1cccc(-c2noc(C(F)(F)F)n2)c1` has a downregulated genes of 30 genes (DHL6; RNA sequencing; 3 µM, 12 h).
`CC(C)(C)C(=O)Nc1ccc2[nH]c(CN3CCC(N(CCCN4CCOCC4)CC4OC(n5cnc6c(N)ncnc65)C(O)C4O)CC3)nc2c1` (centres unmarked): migrating cells “decreased” (H460 wild type or R231Q cells; wound healing; 2.5 and 5 µM, 72 h; baseline: untreated).
`CC(C)c1cccc(C(C)C)c1N1CCN(c2c(C(C)C)cccc2C(C)C)C1=[Se].[Cl][Au]` gave a resistance factor of 1 (LoVo MDR; MTT; baseline: LoVo MDR over LoVo).
For `COc1cc(CNC(=O)C[C@H](C)CCC=C(C)C)ccc1OCc1cn(-c2ccccc2[N+](=O)[O-])nn1`, the growth was 83.5% (786-0; SRB; 10 µM, 48 h).
With `COc1ccc(/C=C/C2=[N+]3C(=C(CO)c4c(C)cc(/C=C/c5ccc(OC)cc5)n4[B-]3(F)F)C(C)=C2)cc1` the phototoxicity index was 500 ± 500 (RPE-1; resazurin; with: 645 nm light; baseline: dark over light IC50).
`CC(C)c1cccc(C(C)C)c1-n1c(Cl)c(Cl)n(-c2c(C(C)C)cccc2C(C)C)c1=[Se].[Cl][Ag]` gave a resistance factor of 0.8 (LoVo MDR; MTT; baseline: LoVo MDR over LoVo).
The growth of `COc1cc(CNC(=O)C[C@H](C)CCC=C(C)C)ccc1O` is reported as 79.6% (MDA-MB-231/ATCC; SRB; 10 µM, 48 h).
`CCNc1cc2c(cc1C)C1(c3cc(C)c(NCC)cc3O2)c2ccccc2C(=O)N1N=Cc1c[c-]c(-c2ccccn2)cc1.Cc1c(C)c(-c2ccc(-c3ccccc3)cc2)[c-](C)c1C.[Cl-].[Ir+3]` — result for “NF-κB p65 protein level”: “no effect” (A549; flow cytometry; concentration not given, 24 h, with: N-acetylcysteine 10 mM; baseline: untreated).
`CC(=O)OC[C@H]1O[C@@H](Sc2sc(C(=O)c3ccc(C)cc3)c(N)c2-c2nc3ccccc3s2)[C@H](OC(C)=O)[C@@H](OC(C)=O)[C@H]1OC(C)=O` gave a growth of 73.6% (OVCAR-8; SRB; 10 µM, 48 h; baseline: untreated).
`C=C1C(=O)OC2C1CCC1(C)CC1CCC1(C)OC21` (centres unmarked) gave a colony number of 0.6 ± 0.9 (TEX; methylcellulose colony; 15 µM, 11 d).
`COc1cc(CNC(=O)C[C@H](C)CCC=C(C)C)ccc1OCc1cn(-c2ccc([N+](=O)[O-])cc2)nn1` gave a growth of 76.8% (MDA-MB-231/ATCC; SRB; 10 µM, 48 h).
For `CN[C@@H](C)C(=O)N[C@H]1CN(C(=O)Cc2ccccc2)CC[C@H]2CC[C@@H](C(=O)NCc3ccc(Br)cc3)N2C1=O`, the onset concentration was > 30 nM (SK-OV-3; cIAP1 degradation, western blot, item: cIAP1; 24 h).
`CN(C)c1cc2ccccc2c(N)n1` — result for “α-SMA protein level”: “decreased” (mouse primary hepatic stellate cells; immunofluorescence; 10 µM, with: TGF-β1 5 ng/mL for 24 h).
`COc1cc(CNC(=O)C[C@H](C)CCC=C(C)C)ccc1OCc1cn(-c2cccc(C(F)(F)F)c2)nn1` gave a growth percent of 84.8% (MOLT-4 leukaemia cells; SRB; 10 µM, 48 h).
`O=C(OCc1cccc(O)c1O)c1ccc(O)c(CO)c1`: H2O2 production “no inhibition” (mouse aortic smooth muscle cells; Amplex red; dose not given, with: angiotensin II 24 h).
For `Brc1ccc(Nc2nc(NN=Cc3c[nH]c4ccccc34)nc(N3CCOCC3)n2)cc1`, LC3-II level read “increased” (A549 and SK-BR-3; autophagy, Western blot; 3 µM, 20 h).
`COc1cc(C(=O)c2[nH]c(N)nc2-c2cccs2)cc(OC)c1OC` has a migration rate of 1.6 ± 0.3 µm/h (A549 cells; scratch wound healing; 100 nM).
For `Fc1ccc(-c2cn(CSc3ccccc3)nn2)c(F)c1`, mRNA level read “increased” (JEG-3; qPCR, item: p53, HDM2, p21, MIC-1; 100 µM, 6 h; baseline: vehicle).
Under “senescence-associated β-galactosidase staining”, `Cc1ccc(NC(=O)c2c(C)oc3ccc(O)c(CN4CCCCCC4)c23)cc1` is recorded as “increased” (L-363; 10 µM, 72 h).
With `C#CCN(CC(=O)O[C@H]1[C@H](C)O[C@@H](O[C@H]2[C@H](N(C)C)[C@@H](O)[C@H](O[C@H]3[C@@H](CC=O)C[C@@H](C)[C@@H](O[C@H]4CC[C@H](N(C)C)[C@@H](C)O4)/C=C/C=C/C[C@@H](C)OC(=O)C[C@@H](O)[C@@H]3OC)O[C@@H]2C)C[C@@]1(C)O)C(=O)c1ccc(C(C)(C)C)cc1` the selectivity index was 4.3 (GES-1 and HGC-27; cell growth, CCK-8; 72 h; baseline: IC50 GES-1 over HGC-27).
`Cc1nn(-c2ccc(S(=O)(=O)N[C@@H](CO)CC(C)C)cc2)c2nn3nnnc3nc12` gave a tail DNA of 28.4 ± 4.77% (HT-29; DNA damage, alkaline comet; 1 µM, 24 h).
With `COc1cc(CNC(=O)C[C@H](C)CCC=C(C)C)ccc1OCc1cn(-c2ccccc2Cl)nn1` the growth percent was 87% (IGROV-1 ovarian cancer cells; SRB; 10 µM, 48 h).
For `FC(F)(F)c1ccnc(-c2cc(C(F)(F)F)ccn2)c1.FC(F)(F)c1ccnc(-c2cc(C(F)(F)F)ccn2)c1.[Cl-].[Cl-].[Ru+2].c1csc(-c2ccc(-c3ccc(-c4ccc(-c5nc6c7cccnc7c7ncccc7c6[nH]5)s4)s3)s2)c1`, the phototherapeutic index was 815 (SK-MEL-28; cell viability; normoxia, with: green light 523 nm, 100 J/cm2; baseline: dark EC50 over light EC50).
With `CC(C)C[C@@H](OC(=O)[C@@H](NC(=O)[C@@H](C)O)C(C)C)C(=O)N[C@@H](C(=O)OC(C)(C)C)C(C)C` the ED50 was > 10 µg/mL (P388; cell growth; DMSO).
`O=C(c1ccc2ccccc2c1)c1cn(-c2ccccc2)nc1C1=Nn2c(Cc3nnc4n3N=C(c3nn(-c5ccccc5)cc3C(=O)c3ccc5ccccc5c3)CS4)nnc2SC1` — result for “total apoptotic cells”: 43.3% (MCF7 cells; annexin V/PI flow cytometry; 0.39 µM, 48 h).
`COc1cc(CNC(=O)C[C@H](C)CCC=C(C)C)ccc1OCc1cn(-c2ccccc2F)nn1` has a growth percent of 66.9% (MCF7 breast cancer cells; SRB; 10 µM, 48 h).
Under γ-H2AX level, `CN1CCN(c2ccc(Nc3ncc(Cl)c(Nc4ccccc4NS(=O)(=O)C4CC4)n3)cc2)CC1` is recorded as “increased” (EGFR C797S mutant; immunofluorescence; concentration not given, 24 h).
`O=C(/C=C(O)/C=C/c1cccs1)/C=C/c1cccs1` has an intracellular ROS of 105 ± 8% (EA.hy926; DCFH-DA, normalised to SRB; 10 µM; baseline: untreated).
With `CCCCCC(=O)O[C@H]1[C@H](C)O[C@@H](O[C@H]2[C@H](N(C)C)[C@@H](O)[C@H](O[C@H]3[C@@H](CC=O)C[C@@H](C)[C@@H](O[C@H]4CC[C@H](N(C)C)[C@@H](C)O4)/C=C/C=C/C[C@@H](C)OC(=O)C[C@@H](O)[C@@H]3OC)O[C@@H]2C)C[C@@]1(C)O` the selectivity index was 7.42 (GES-1 and HGC-27; cell growth, CCK-8; 72 h; baseline: IC50 GES-1 over HGC-27).
For `COc1ccc(CC2COC(=O)C2Cc2ccc3c(c2)OCO3)cc1OC` (mixture of isomers), protein level read “decreased” (A2780cis (cisplatin-resistant); Western blot, item: topoisomerase II; 3.25 µM, 48 and 72 h; baseline: 0 h control).
With `COc1cc(CNC(=O)C[C@H](C)CCC=C(C)C)ccc1OCc1cn(-c2ccc(Cl)c(Cl)c2)nn1` the growth was 75.7% (MDA-MB-231/ATCC; SRB; 10 µM, 48 h).
`Cc1c(C)c(C)[c-](C)c1C.O=C1c2cccc[n+]2[Ir]([Cl])[N]1CCCCCCCCCC[P+](c1ccccc1)(c1ccccc1)c1ccccc1.[Br-]` gave a cell viability of 1.3 fold (SH-SY5Y; SRB; concentration not given, 3 h, with: MPP+ 1 mM 24 h; baseline: MPP+ alone).
`CC(=O)N[C@H](C(=O)N[C@H](C(=O)N[C@@H](CCCNC(=N)N)C(=O)N1Cc2ccccc2C[C@H]1C(=O)N[C@@H](Cc1ccccc1)C(N)=O)C1CCCCC1)C(C)C` gave a cytokine level of 11 ± 1.2 pg/mL (MBP-specific BC-3 T cells; Bio-Plex multiplex, item: IL-17; 200 µg/mL, 24 h, with: MBP87-99 antigen).
`CCc1cccc(CC)c1NC(=O)c1nn(C)c2c1CCc1cnc(Nc3ccc(N4CCN(C)CC4)cc3OC)nc1-2` has an IC50 ratio of 10.2 (HCT-116 I531M; cell proliferation; baseline: I531M over parental HCT-116).
With `O=C1OCC2=C1C(c1cccc(Br)c1)C1=C(N2)C(=O)c2ccccc2C1=O` (centres unmarked) the necrotic cells was 2.84% (SK-LU-1 cells; annexin V/PI; 0.16 µM, 24 h).
`CC/C=C\C/C=C\C/C=C\C/C=C\C/C=C\C/C=C\CCC(=O)Nc1ccn(C2OC(CO)C(O)C2(F)F)c(=O)n1` (centres unmarked) gave a TGI of 28.8 µM (SR; NCI60 screen).
`CC1(C)C=Cc2c(O)cc(/C=C/c3ccc(O)cc3O)cc2O1` has a selectivity ratio of 3.6 (SAS; cell growth, MTT; baseline: IC50 HaCaT over IC50 SAS).
The apoptotic cells of `Cc1nn(C)c(O)c1-c1nc2cc(Cl)c(Cl)cc2[nH]c1=O` is reported as ~40% (TF-1; annexin V flow cytometry; concentration not given, 72 h, treated at IC50).
For `CCOC(=O)c1c(C(C)C)oc2nc(N3CCOCC3)ccc12`, the EC50 was > 50 µM (CRL8155; cell growth or viability; 48 h).
`CCC(=C(c1ccc(Cl)cc1)c1ccc(OCCCN(C)C)cc1)c1ccc(OC)cc1` gave a GI50 of 3.88 µM (A549/ATCC; NCI five-dose screen; non-small-cell lung cancer).
`CC(=O)NC1C(O)OC(CO)C(O)C1OC(C)C(=O)NC(C)C(=O)NC(CCC(=O)O)C(N)=O` (centres unmarked) — result for IL-1β secretion: “increased” (human PBMCs; 10 µM, 24 h, with or without LPS).
`COc1cc(CNC(=O)C[C@H](C)CCC=C(C)C)ccc1OCc1cn(-c2cccc(Cl)c2)nn1` has a growth percent of 47.7% (MOLT-4 leukaemia cells; SRB; 10 µM, 48 h).
`CCC/C(=C\C1=C(OC)C(=O)c2ccccc2C1=O)C(=O)NOC` — result for “NADPH/total NADP ratio”: “decreased” (Pa03C cells; concentration not given, 6 h).
`Cc1cccc(NCC(=O)Nc2nc3ccccc3s2)c1` gave an inhibition of 17.7% (normal fibroblasts; 100 µM).
With `COc1ccc([C@@H]2CC(=O)c3c(O)cc(O[C@@H]4O[C@H](CO[C@@H]5O[C@@H](C)[C@H](O)[C@@H](O)[C@H]5O)[C@@H](O[C@H]5O[C@H](CO)[C@@H](O)[C@H](O)[C@H]5O)[C@H](O)[C@H]4O)cc3O2)cc1O` the viability was 31.9% (A549; cell growth or viability, MTS; 150 µg/mL, 24 h).
